Measured values of several laboratories.
Parts stem from different laboratories: compare values within a part only.

Set 1
Target: Replicase polyprotein 1ab, nsp13 helicase (rep, Severe acute respiratory syndrome coronavirus 2, UniProt P0DTD1)
Action: inhibitor
Tested at: 20 µM
Structure (SMILES) | inhibition [%]
Cc1ccc(Nc2ncc3c(n2)N(C)C(=O)N(c2cc(NC(=O)c4cccc(C(F)(F)F)c4)ccc2C)C3)cn1 | -1.44
O=C(NCc1ccc(F)cc1)N1CCN2C(=O)OC(c3ccccc3)(c3ccccc3)C2C1 (stereo not shown) | -2.08
CNc1cc(OC)c(C(=O)N[C@@H]2CCN(Cc3ccccc3)[C@@H]2C)cc1Cl (racemic) | 9.92
CN(C)[C@@H]1C(O)=C(C(N)=O)C(=O)[C@@]2(O)C(O)=C3C(=O)c4c(O)cccc4[C@@](C)(O)[C@H]3C[C@@H]12 | 0.55
CN/C(=N\c1ccc(C2=NNC(=O)CC2C)cc1)NC#N (stereo not shown) | 7.61
C[C@H]1COC2=C1C(=O)C(=O)c1c2ccc2c1CCCC2(C)C | 18.1
CC1(C)CNc2cc(NC(=O)c3cccnc3NCc3ccncc3)ccc21 | -2.13
CC(=O)[C@H]1CC[C@H]2[C@@H]3CC[C@H]4C[C@H](O)CC[C@]4(C)[C@H]3C(=O)C[C@]12C | 6.98
O=C1NC(=O)/C(=C/c2ccc(-c3ccc(F)cc3O)o2)S1 | 28.2
C#Cc1cnc2nc(O)n(C(CC)CC)c2n1 | 7.48
CC1=CC[C@@H](C(C)(C)O)C[C@@H]1O | 0.48
CN(C)Cc1cccc(N/C(=C2\C(=O)Nc3cc(C(N)=O)ccc32)c2ccccc2)c1 | 10.9
O=C(Nc1ccccc1Br)N[C@@H]1CCN(c2ccc(C(F)(F)F)cn2)C1 | 10.7
C=C(C)CN1CC[C@]23c4c5ccc(O)c4O[C@H]2c2[nH]c4ccccc4c2C[C@@]3(O)C1C5 | 3.88
CC(=O)N(c1onc(C)c1C)S(=O)(=O)c1ccc(N)cc1 | 12.1
CC1(C)CCC(C)(C)c2c1cc(C(=O)Nc1cc(F)c(C(=O)O)c(F)c1)c(O)c2Cl | 2.4
N[C@@H](CC(=O)N1CCn2c(nnc2C(F)(F)F)C1)Cc1[nH]nc2c(F)c(F)ccc12 | 1.15
COC(=O)Nc1ccc(-c2nc(N3CCOCC3)c3cnn(C4CCN(Cc5cccnc5)CC4)c3n2)cc1 | -3.87
CCCNC(=O)Nc1ccc(Oc2ncnc3cc(OC)c(OC)cc23)cc1Cl | 7.67
NC(N)=Nc1nc(CSCCN/C=N/S(=O)(=O)c2ccc(Br)cc2)cs1 | 2.72
CCOC(=O)c1ccc(N(C)c2csc(-c3ccccc3)n2)cc1 | 12.7
CC(=O)c1cnc2ccc(-c3cc(Cl)c(O)c(Cl)c3)nc2c1N[C@H]1CC[C@H](CN(C)C)CC1 | 15.2
O=C(CCCl)NCCc1ccccc1 | -0.88
CC1=C(O)C(=O)[C@@H]2O[C@@H]2C1=O | 9.93

Set 2
Target: Interferon regulatory factor 7, full length, phosphomimetic (IRF7, Homo sapiens, UniProt Q92985, residues 1-503, S101K/S471D/S472D/S475D/S476D/S477D/S483D/S484D/S487D)
UniProt Q92985, sequence (whole entry, unmodified, looked up): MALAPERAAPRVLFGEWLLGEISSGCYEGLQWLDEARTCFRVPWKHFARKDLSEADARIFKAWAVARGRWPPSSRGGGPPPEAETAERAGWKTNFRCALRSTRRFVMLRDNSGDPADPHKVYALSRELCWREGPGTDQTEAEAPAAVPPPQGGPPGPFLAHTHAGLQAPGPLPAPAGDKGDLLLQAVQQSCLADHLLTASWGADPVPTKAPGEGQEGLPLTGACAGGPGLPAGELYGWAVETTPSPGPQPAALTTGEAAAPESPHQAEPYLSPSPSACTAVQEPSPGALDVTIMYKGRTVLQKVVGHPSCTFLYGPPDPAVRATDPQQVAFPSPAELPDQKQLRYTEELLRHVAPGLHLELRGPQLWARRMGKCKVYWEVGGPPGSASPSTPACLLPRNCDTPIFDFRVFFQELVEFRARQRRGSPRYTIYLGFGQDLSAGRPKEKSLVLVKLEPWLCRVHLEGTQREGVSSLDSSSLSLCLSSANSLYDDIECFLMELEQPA
Method: protein-binding microarray
Form: double-stranded DNA, one strand shown
Sample: in vitro
Tested at: 250 nM
Setting: 60-bp whole probe
Added: salmon DNA 0.4 mg/ml
Reference: random background probes
Reading: higher = stronger binding
All sequences stand within: GCCTAGCAC … GTCTTGATTCGCTTGACGCTGCTG
Sequence | log fluorescence
TTAGATTTCAGTATCGCTTAGTGCTAG | 0.806 z-score
TCAGGTTCAGATATAGGACTGTGCTAG | 0.12 z-score
TCATCTCTCTTAAATAGGACTGTGCTA | 0.86 z-score
GACGGTACCCTTCTCCTGACGTGCTAG | 0.192 z-score
TCTAATCTCACTCTGTCCCTGTGCTAG | 0.253 z-score
CTGCGGTGAGTGCGTTATCGGTGCTAG | -1.24 z-score
GACGAACTGGGGTATCGAGATGTGCTA | -0.166 z-score
GACGATAACGGGACTGGAGACGTGCTA | -0.508 z-score

Set 3
Target: Sal-like protein 4, full length isoform B (SALL4, Homo sapiens, UniProt Q9UJQ4-2, residues 1-616)
Method: universal PBM
Form: double-stranded DNA, one strand shown
Sample: in vitro
Tested at: not given
Setting: 8-mer, flanks averaged, mean of replicates
Reading: higher = stronger binding
Sequence | E-score
CGAGAGAA | -0.0783
AAACTGCG | -0.124
GGACCAGA | -0.188
AGTGACAT | 0.157
CACGCGCA | -0.195
AACCTACA | 0.154
CAGAGCCC | -0.218
CCGTACTC | -0.159

Set 4
Target: Histone acetyltransferase KAT6A, both winged helices, GST fusion (KAT6A, Homo sapiens, UniProt Q92794, residues 1-181)
Method: protein binding microarray
Form: double-stranded DNA, one strand shown
Sample: in vitro
Tested at: not given
Setting: 8-mer, flanks averaged, mean of 2 arrays, mostly near background
Reference: not given
Reading: higher = stronger binding
Residues (chain): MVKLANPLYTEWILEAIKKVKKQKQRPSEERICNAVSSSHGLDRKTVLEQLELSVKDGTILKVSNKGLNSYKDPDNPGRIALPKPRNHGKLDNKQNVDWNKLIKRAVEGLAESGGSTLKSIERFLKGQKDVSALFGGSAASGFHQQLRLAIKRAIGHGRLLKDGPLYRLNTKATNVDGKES
Sequence | E-score
CTTCCACC | -0.0848
GGATTGCA | 0.132
GAGTTCCC | -0.078
GGGTGACA | -0.0571
CTCTCGTC | -0.0791
CGTTTAGC | 0.252
CATTAAAC | 0.0374
AGTACACC | -0.148

Set 5
Target: Replicase polyprotein 1ab, main protease (rep, Severe acute respiratory syndrome coronavirus 2, UniProt P0DTD1)
Observed: enzyme activity
Action: inhibitor
Tested at: 20 µM
Setting: primary screen
SMILES | inhibition [%]
CC1(C)C(/C=C/C=C/C=C/C=C2\N(CCCCS(=O)(=O)[O-])c3ccc4ccccc4c3C2(C)C)=[N+](CCCCS(=O)(=O)[O-])c2ccc3ccccc3c21.[Na+] | 65.5
O=C1C(Cl)=C(Cl)C(=O)C(Cl)=C1Cl | 101
Oc1cc2c(cc1C(c1ccc(C(F)(F)F)cc1)N1CCOCC1)OCO2 (stereo not shown) | 81.4
O=C(O)c1c(Cl)c(Cl)c(Cl)c(Cl)c1-c1c2cc(I)c(=O)c(I)c-2oc2c(I)c(O)c(I)cc12 | 112

Single results of other studies
Organism: VSV pseudotyped with SARS-CoV-2 spike
Tested at: 10 µM
Time: 16 h
SMILES | cell line | assay | scale | endpoint | value
CN[C@H](CC(C)C)C(=O)N[C@H]1C(=O)N[C@@H](CC(N)=O)C(=O)N[C@H]2C(=O)N[C@H]3C(=O)N[C@H](C(=O)N[C@H](C(=O)O)c4cc(O)cc(O)c4-c4cc3ccc4O)[C@H](O)c3ccc(c(Cl)c3)Oc3cc2cc(c3O[C@@H]2O[C@H](CO)[C@@H](O)[C@H](O)[C@H]2O[C@H]2C[C@](C)(N)[C@H](O)[C@H](C)O2)Oc2ccc(cc2Cl)[C@H]1O | HEK-293T | – | – | pseudovirus infection | 94.5%
CCCc1nc2c(C)cc(-c3nc4ccccc4n3C)cc2n1Cc1ccc(-c2ccccc2C(=O)O)cc1 | HEK-293T/ACE2 | pseudovirus infection | reference: vehicle-treated | GFP-positive cells | 61.9%
CO[C@H]1/C=C/O[C@@]2(C)Oc3c(C)c(O)c4c(c3C2=O)C2=NC3(CCN(CC(C)C)CC3)NC2=C(NC(=O)/C(C)=C\C=C\[C@H](C)[C@H](O)[C@@H](C)[C@@H](O)[C@@H](C)[C@H](OC(C)=O)[C@@H]1C)C4=O | HEK-293T | pseudovirus infection | reference: vehicle-treated | GFP-positive cells | 134%

Some of these lines once more (set 4):
Sequence | E-score
AGTACACC | -0.148
GGATTGCA | 0.132
GGGTGACA | -0.0571
CATTAAAC | 0.0374
CTTCCACC | -0.0848
CGTTTAGC | 0.252
CTCTCGTC | -0.0791
GAGTTCCC | -0.078
